{"data": "Experimental data gathered from unrelated publications", "note": "± gives the spread as reported.", "UniProt P08684, sequence (whole entry, looked up)": "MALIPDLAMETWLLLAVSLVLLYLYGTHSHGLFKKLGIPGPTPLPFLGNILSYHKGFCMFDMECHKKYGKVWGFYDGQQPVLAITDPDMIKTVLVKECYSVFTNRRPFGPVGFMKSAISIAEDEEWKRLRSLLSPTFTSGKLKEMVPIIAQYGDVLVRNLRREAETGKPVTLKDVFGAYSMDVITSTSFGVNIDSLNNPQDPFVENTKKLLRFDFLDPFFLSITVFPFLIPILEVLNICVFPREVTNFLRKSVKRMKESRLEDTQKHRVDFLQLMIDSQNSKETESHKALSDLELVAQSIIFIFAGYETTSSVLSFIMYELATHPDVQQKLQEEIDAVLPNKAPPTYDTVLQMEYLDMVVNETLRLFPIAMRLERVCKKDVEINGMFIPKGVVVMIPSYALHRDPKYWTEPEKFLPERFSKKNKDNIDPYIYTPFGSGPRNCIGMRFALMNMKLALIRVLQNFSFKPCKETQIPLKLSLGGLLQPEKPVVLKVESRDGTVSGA", "UniProt P11712, sequence (whole entry, looked up)": "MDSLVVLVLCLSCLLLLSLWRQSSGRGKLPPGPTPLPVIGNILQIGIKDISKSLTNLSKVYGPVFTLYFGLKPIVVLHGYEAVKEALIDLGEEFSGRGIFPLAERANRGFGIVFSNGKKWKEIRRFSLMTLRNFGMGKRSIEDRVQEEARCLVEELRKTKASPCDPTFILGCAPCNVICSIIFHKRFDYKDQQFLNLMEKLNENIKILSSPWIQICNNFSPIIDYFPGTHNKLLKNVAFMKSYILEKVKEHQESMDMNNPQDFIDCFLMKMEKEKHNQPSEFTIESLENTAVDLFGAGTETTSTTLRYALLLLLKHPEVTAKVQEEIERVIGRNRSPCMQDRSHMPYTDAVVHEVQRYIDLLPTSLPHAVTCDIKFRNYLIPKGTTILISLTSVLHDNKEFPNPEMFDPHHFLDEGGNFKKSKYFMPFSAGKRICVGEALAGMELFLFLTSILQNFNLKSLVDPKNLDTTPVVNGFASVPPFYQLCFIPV"}
{"SMILES": "COc1ccc2c(c1)[C@]13CCCC[C@@H]1[C@H](C2)N(C)CC3", "test system": "Wistar rat, both sexes, plasma", "conditions": "oral, 5 mg/kg, 2 h after pretreatment, with: single quinidine 2.5 mg/kg", "quantity": "Cmax", "result": "49.5 ± 14.6 ng/mL"}
{"SMILES": "O=[N+]([O-])NC1=NCCN1Cc1ccc(Cl)nc1", "target or system": "Folsomia candida", "assay": "reproduction, OECD 232", "test system": "LUFA 2.2 soil", "conditions": "28 days", "quantity": "EC10", "result": "0.1 mg/kg dry soil"}
{"SMILES": "C[C@H]1CNCCc2ccc(Cl)cc21", "test system": "male Sprague-Dawley rat, plasma", "conditions": "subcutaneous, 3 mg/kg, single dose", "quantity": "CL/F", "result": "253 mL/min/kg"}
{"SMILES": "CSCC[C@@H]1NC(=O)[C@H](CC(=O)O)NC(=O)CNC(=O)[C@H](CCCNC(=N)N)NC(=O)[C@H](C)NC(=O)[C@H](CCC(=O)O)NC(=O)[C@H](CCCNC(=N)N)NC(=O)[C@@H]2CSSC[C@@H]3NC(=O)[C@H](CO)NC(=O)[C@H]([C@@H](C)O)NC(=O)[C@@H]4CCCN4C(=O)[C@H](C)NC(=O)[C@H](Cc4c[nH]c5ccccc45)NC(=O)[C@H](CC(=O)O)NC(=O)CNC(=O)[C@H](CCCNC(=N)N)NC(=O)CNC(=O)[C@H](CCC(N)=O)NC(=O)[C@@H]4CCCN4C(=O)[C@@H](NC(=O)CNC(=O)C(C)F)CSSC[C@H](NC(=O)CNC(=O)[C@H](C)NC(=O)[C@H](CC(C)C)NC(=O)[C@H](CSSC[C@@H](C(=O)NCC(N)=O)NC(=O)[C@H]([C@@H](C)O)NC(=O)[C@H](CCCNC(=N)N)NC(=O)[C@@H]4CCCN4C1=O)NC(=O)[C@H](CC(=O)O)NC(=O)[C@H](CO)NC(=O)[C@H](CC(=O)O)NC(=O)[C@H](CCC(N)=O)NC(=O)[C@H](CO)NC3=O)C(=O)N[C@@H](C(C)C)C(=O)N2 (stereo partly shown) [fluorine-18 labelled]", "test system": "nude mice U-87 MG xenograft, intestine", "conditions": "intravenous, 0.5 h", "quantity": "tissue uptake", "result": "1.28 ± 0.32 %ID/g"}
{"SMILES": "CC[C@H]1CN2CCc3c([nH]c4cccc(OC)c34)[C@@H]2C[C@@H]1/C(=C\\OC)C(=O)OC", "target or system": "Cytochrome P450 2C9 (CYP2C9, Homo sapiens, UniProt P11712)", "assay": "enzyme activity, inhibitor", "test system": "human liver microsomes", "conditions": "with: diclofenac 4'-hydroxylation", "quantity": "IC50", "result": "> 45 µM"}
{"SMILES": "OCc1ncc2n1-c1ccc(Cl)cc1C(c1ccccc1F)=NC2", "target or system": "Cytochrome P450 3A4 (CYP3A4, Homo sapiens, UniProt P08684)", "test system": "human", "conditions": "75 mg once daily, day 10, with: midazolam 7.5 mg", "how to read": "reference: compound over midazolam", "quantity": "AUC ratio", "result": 0.31}
{"SMILES": "[123I]c1cncc(OC[C@@H]2CCN2)c1", "assay": "SPECT", "test system": "human, thalamus", "conditions": "intravenous bolus plus infusion, 7.8 mCi", "how to read": "reference: plasma", "quantity": "tissue/plasma ratio", "result": 42.2}
{"SMILES": "CN1CC[C@]23c4c5ccc(O)c4O[C@H]2[C@@H](O[C@@H]2O[C@H](C(=O)O)[C@@H](O)[C@H](O)[C@H]2O)C=C[C@H]3[C@H]1C5", "target or system": "MDCK II", "conditions": "1.0 µg/mL, 100 min, Hanks buffer", "quantity": "Papp", "result": "2.99 ± 0.34 ×10⁻⁶ cm/s"}
{"SMILES": "CN[C@@](C)(C[18F])C(=O)O", "target or system": "MDA-MB-468 tumour model", "test system": "host not given, kidney", "conditions": "30 min, tumour-bearing", "quantity": "tracer uptake", "result": "11 %ID/g"}
{"SMILES": "N[C@]1(c2ccccc2Cl)CC[C@H](O)CC1=O", "test system": "female CD-1 mice, plasma", "conditions": "intraperitoneal, 5 mg/kg", "quantity": "dose-normalized Cmax", "result": "128 ± 9.1 ng/mL per mg/kg"}
{"note": "Some of these lines once more:"}
{"SMILES": "CN[C@@](C)(C[18F])C(=O)O", "target or system": "MDA-MB-468 tumour model", "test system": "host not given, kidney", "conditions": "30 min, tumour-bearing", "quantity": "tracer uptake", "result": "11 %ID/g"}
